Measured values from different studies.
Lines come from different studies, so protocols differ. Numbers after ± are the reported error.

Compound | assay | system | conditions | measurement | result
O=C1NC2(CC2)COc2ncc(F)cc2[C@H]2COCCN2c2ccn3ncc1c3n2 | – | Sprague-Dawley rat, male, brain | oral, 10 mg/kg/day, 4 weeks, end of treatment | organ-to-body weight ratio | 0.471 ± 0.021%
C[C@H](O)[C@@H](NC(=O)[C@H]1CCCN1C(=O)[C@@H](CCCCN)NC(=O)[C@@H](CO)NC(=O)[C@@H](Cc1ccc(O)cc1)NC(=O)[C@@H](CC(N)=O)NC(=O)CCOCCOCCOCCNC(=O)CN1CCN(CC(=O)O)CCN(CC(=O)O)CCN(CC(=O)O)CC1)C(=O)N[C@H](CC(=O)O)C(=O)N[C@H](CCCNC(=N)N)C(=O)N[C@H](CCC(N)=O)C(=O)N[C@H](Cc1ccc(O)cc1)C(=O)N[C@H](Cc1c[nH]cn1)C(=O)N[C@H](Cc1ccccc1)C(N)=O [gallium-68 labelled] | ex vivo gamma counting | BALB/c nude mouse, U-87 MG xenograft, intestine | intravenous, 1.85 MBq, 60 min | tissue uptake | 0.08 ± 0.02 %ID/g
CC(C)C[C@@H](NC(=O)[C@@H](CCCNC(=N)N)NC(=O)[C@@H](Cc1c[nH]cn1)NC(=O)[C@@H](Cc1c[nH]c2ccccc12)NC(=O)[C@@H](Cc1c[nH]cn1)NC(=O)[C@@H](Cc1ccccc1)NC(=O)[C@H](NC(=O)[C@@H](Cc1ccc(O)cc1)NC(=O)CNC(=O)CNC(=O)CCOCCOCCOCCNC(=O)CN1CCN(CC(=O)O)CCN(CC(=O)O)CC1)[C@H](C)O)C(=O)N[C@H](CC(N)=O)C(=O)N1CCC[C@@H]1C(=O)O [gallium-68 labelled] | gamma counting | C57BL/6 mice, male, stomach | intravenous, 1.85 MBq, 30 min | tissue uptake | 1.24 ± 0.34 %ID/g
O=C([O-])CNC(=O)CN1CCN(CC(=O)NCC(=O)[O-])CCN(CC(=O)NCC(=O)[O-])CCN(CC(=O)NCC(=O)[O-])CC1.[177Lu+3] | – | Sprague-Dawley rat, kidney | intravenous (tail vein), dose not given, 2 h | tissue uptake | 0.281 ± 0.05 % injected dose/g
CC[C@H](C)[C@H](NC(=O)[C@H](CCCNC(=N)N)NC(=O)[C@H](CCCCN)NC(=O)[C@H](Cc1ccc(O)cc1)NC(=O)[C@H](CC(=O)O)NC(=O)[C@H](C)NC(=O)CNC(=O)CCOCCOCCOCCNC(=O)CN1CCN(CC(=O)O)CCN(CC(=O)O)CCN(CC(=O)O)CC1)C(=O)N[C@H](C(=O)N[C@@H](CC(C)C)C(=O)N[C@@H](CCCCN)C(=O)N[C@H](C(=O)N[C@@H](CC(N)=O)C(N)=O)C(C)C)[C@@H](C)O [copper-64 labelled] | ex vivo gamma counting | C57BL/6J male mice, B16-F10 tumour, lung | intravenous, 1.85 MBq, 100 min | tissue uptake | 1.64 ± 0.637 %ID/g
CN1Cc2cc(Cl)ccc2-n2c(nnc2C2CCN(c3cccc([18F])n3)CC2)C1 | – | C57BL/6 mouse male, pancreas | intravenous, 3.7 MBq, 30 min | tissue uptake | 10.1 ± 5.55 %ID/g
CCCC[C@H]1C(=O)N(C)[C@@H](CCCC)C(=O)N[C@@H](CCCNC(=O)CN2CCN(CC(=O)O)CCN(CC(=O)O)CCN(CC(=O)O)CC2)C(=O)N[C@H](C(=O)NCC(N)=O)CSCC(=O)N[C@@H](Cc2ccc(O)cc2)C(=O)N(C)[C@@H](C)C(=O)N[C@@H](CC(N)=O)C(=O)N2CCC[C@H]2C(=O)N[C@@H](Cc2c[nH]cn2)C(=O)N[C@@H](CC(C)C)C(=O)N(C)CC(=O)N[C@@H](Cc2c[nH]c3ccccc23)C(=O)N[C@@H](CO)C(=O)N[C@@H](Cc2c[nH]c3ccccc23)C(=O)N1C [gallium-68 labelled] | – | NOD/SCID mice, CHO-hPD-L1 xenograft, stomach | 60 min, added: blocking agent 50 µg co-injected | tissue uptake | 4.9 ± 1.14 %ID/g
CC[C@H](C)[C@H](NC(=O)[C@H](CCCCN)NC(=O)CNC(=O)[C@H](CC(C)C)NC(=O)[C@H](Cc1ccccc1)NC(=O)[C@H](CCCCN)NC(=O)[C@H](CO)NC(=O)[C@H](Cc1ccccc1)NC(=O)[C@H](Cc1c[nH]c2ccccc12)NC(=O)[C@H](CCC(N)=O)NC(=O)[C@@H](NC(=O)[C@H](Cc1ccccc1)NC(=O)CCCCCNC(=O)CN1CCN(CC(=O)O)CCN(CC(=O)O)CCN(CC(=O)O)CC1)C(C)C)C(=O)N[C@@H](CCC(=O)O)C(=O)N1CCC[C@H]1C(=O)N[C@@H](CC(=O)O)C(=O)N[C@H](C(=O)N[C@@H](CO)C(=O)N[C@@H](CCC(N)=O)C(=O)N[C@H](C(=O)N[C@@H](CCC(N)=O)C(=O)N[C@@H](CC(=O)O)C(=O)N1CCC[C@H]1C(=O)N[C@@H](CC(N)=O)C(=O)N[C@@H](CC(=O)O)C(=O)N[C@@H](CCC(N)=O)C(=O)N[C@@H](Cc1ccc(O)cc1)C(=O)N[C@@H](CCC(=O)O)C(=O)N1CCC[C@H]1C(=O)N[C@@H](Cc1ccccc1)C(=O)O)C(C)C)C(C)C [copper-64 labelled] | – | C57BL/6 mice, bone | added: LPS 3 mg/kg intratracheal | tissue uptake | 0.71 ± 0.07 %ID/g
CSCC[C@H](NC(=O)CNC(=O)[C@H](CCCCN)NC(=O)[C@H](CC(C)C)NC(=O)[C@@H]1CCCN1C(=O)[C@H](CO)NC(=O)[C@H](Cc1c[nH]cn1)NC(=O)[C@H](Cc1c[nH]c2ccccc12)NC(=O)[C@H](CCCNC(=N)N)NC(=O)[C@H](CC(C)C)NC(=O)[C@H](CCCNC(=N)N)NC(=O)[C@H](Cc1c[nH]c2ccccc12)NC(=O)[C@H](CS)NC(=O)CCCCCNC(=O)CN1CCN(CC(=O)O)CCN(CC(=O)O)CCN(CC(=O)O)CC1)C(=O)O [copper-64 labelled] | PET | C57BL/6J mice, B16-F10 tumour, liver | intravenous, 3.5 h | tissue uptake | 10.5 ± 0.28 %ID/g
